Measured values from different studies.
Each line is one published result; not all experiments were run side by side. Values joined by “and” are separate records of one study, mostly repeats; a detail may differ. ± gives the spread as reported.

CCCCC(CSS(=O)(=O)O)NCC(C)C (centres unmarked) — body weight decrease (Swiss Webster mice, Schistosoma mansoni infected; 100 mg/kg; reference: vehicle control): 7%
CCCCN1C(=O)c2cccc3c(NCCN4CCOCC4)ccc(c23)C1=O — emission maximum (DMSO): 533 nm
CC(C)(C)C(=O)Nc1ccc2[nH]c(CN3CCC(N(CCCN4CCOCC4)CC4OC(n5cnc6c(N)ncnc65)C(O)C4O)CC3)nc2c1 (centres unmarked) — concentration (male Sprague-Dawley rat, plasma; intravenous, 20 mg/kg, 4.98 min): 5620 ng/mL
COc1cccc(OC)c1-c1cc(C(=O)NC2(C(=O)O)C3CC4CC(C3)CC2C4)nn1-c1ccc(C(=O)NCCNC(=O)[C@H](CCCCNC(=O)[C@H](CC(C)C)NC(=O)C2OC2C(=O)O)NC(=O)CN2CCN(CC(=O)[O-])CCN(CC(=O)[O-])CCN(CC(=O)[O-])CC2)cc1C(C)C.[177Lu+3] (mixture of isomers) — tumour-to-spleen ratio (mouse HT-29 xenograft; 72 h, biodistribution; reference: tumour over spleen): 7.22
O=c1cc(/C=C/c2ccc(N3CCCC3)cc2)oc(/C=C/c2ccc(N3CCCC3)cc2)c1 — emission maximum (acetonitrile; 10 µM, 298 K): 559 nm
CCCCN1C(=O)c2cccc3c(NCCCCCN4CCOCC4)ccc(c23)C1=O — emission maximum (water; pH 6.0): 553 nm
Cc1cc(-c2ccc(C(=O)[C@@H]3CCCC[C@H]3C(=O)Nc3cnn4c3C(=O)NCC4)cc2)[nH]n1 — recovery of radioactivity per interval (human, urine; oral, 200 mg, 0-6 h; reference: dose): 2.08%
COCC1CN(C2CCN(c3cc(OC)c(Nc4ncc(Br)c(Nc5ccc6c(c5P(C)(C)=O)OCCO6)n4)cc3C)CC2)C1 — grade ≥3 treatment-related AEs (phase 1 trial; human, advanced EGFR-mutant NSCLC; oral, dose not given): 22.2%
CN1CCC[C@]1(C)/C=C/S(=O)(=O)NC(=O)Nc1c2c(cc3c1CCC3)CCC2 — subjects with adverse event (item: alanine aminotransferase increased, probably related; human; oral, 100 mg twice daily, 14 days, multiple ascending dose): 33.3%
C=C[C@]1(C)C[C@@H](OC(=O)CSc2ccc(NC(=O)c3ccco3)cc2)[C@]2(C)[C@H](C)CC[C@]3(CCC(=O)[C@H]32)[C@@H](C)[C@@H]1O — apparent clearance (CL/F) (M. gallisepticum-infected chickens, plasma; intramuscular, 40 mg/kg single dose): 65.7 mL/min/kg
Cc1cnc2nc1Nc1cccc(c1)COC/C=C/COCc1cc(ccc1OCCN1CCOCC1)N2 — body weight (BALB/c mice, rhEPO-induced polycythemia; 100 mg/kg, day 1): 18.5 g and 18.2 g and 18.8 g and 18 g and 19.4 g and 17.9 g
CC[C@H](C)[C@@H]1NC(=O)[C@H](Cc2ccc(O)cc2)NC(=O)CCCSC[C@@H](C(=O)N(CC(=O)N[C@@H](CC(C)C)C(=O)NCC(N)=O)Cc2ccc(F)cc2)NC(=O)[C@H](CC(N)=O)NC(=O)[C@H](CCC(N)=O)NC1=O — adverse drug reactions (human; intranasal, 5 µg single dose): 50%
CCCCN1C(=O)c2cccc3c(NCCCCN4CCOCC4)ccc(c23)C1=O — emission maximum (dioxane): 504 nm
CC(C)=CCC1=C([O-])C(=O)c2ccccc2C1=O.CC(C)=CCC1=C([O-])C(=O)c2ccccc2C1=O.[Zn+2].c1ccc(-c2ccnc3c2ccc2c(-c4ccccc4)ccnc23)cc1 — Epc1 cathodic peak potential (cyclic voltammetry; CH2Cl2, Bu4NPF6; 0.1 mM; reference: Ag/AgCl sat. KOH): 0.63 V
COC1CN([C@H]2CC[C@H]([C@@]3(C)Oc4c(Cl)cc(C(=O)NCc5c(SC)cc(C)[nH]c5=O)c(C)c4O3)CC2)C1 — log2 fold change (RNA-seq, item: TMCC2; human, whole blood; dose not given, 24 h; reference: pretreatment baseline): 2.21
CS(=O)(=O)c1cc(Cl)cc(-c2cc(Cl)c(Cl)cc2Cl)c1Cl — dose fraction in milk fat (whole cow milk; 100 nM nominal): 86.5%
[123I]c1ccc2nc(-c3ccc(-n4ccnn4)nc3)cn2c1 — tissue uptake (Wistar rat, adrenals; intravenous, 14 h): not detected
CN(O)C(=O)CCC(=O)NCCCN(CCCCN(CCCNC(=O)CCC(=O)N(C)O)C(=O)CCC(=O)N(C)O)C(=O)CCC(=O)N(C)O.[89Zr] — intact complex (human plasma; 5 d, 37 °C): 100%
CC(C)C[C@H](NC(=O)[C@@H](CCCCNC(=O)[C@@H](Cc1ccccc1)NC(=O)CCCCCCCNC(=O)CN1CCN(CC(=O)O)CCN(CC(=O)O)CCN(CC(=O)O)CC1)NC(=O)[C@H](Cc1ccc(O)cc1)NC(=O)[C@H](CO)NC(=O)[C@H](Cc1c[nH]c2ccccc12)NC(=O)[C@H](Cc1c[nH]cn1)NC(=O)[C@@H]1CCC(=O)N1)C(=O)N[C@@H](CCCNC(=N)N)C(=O)N1CCC[C@H]1C(=O)NCC(N)=O [indium-111 labelled] — excreted dose (male athymic nude mice, DU-145 prostate cancer xenograft, urine; intravenous, 0.037 MBq, 0.5 h): 59.9 ± 5.96%
[Mn+2].[O-][Cl+3]([O-])([O-])[O-].[O-][Cl+3]([O-])([O-])[O-].c1ccc(CN2Cc3cccc(n3)CN(Cc3ccccn3)Cc3cccc(n3)C2)nc1 — stability constant log β (voltammetry, Nernst equation; Mn(III) complex): 6.31
COc1cccc(OC)c1-c1cc(C(=O)NC2(C(=O)O)C3CC4CC(C3)CC2C4)nn1-c1ccc(C(=O)N(C)CCOCCOCCN(C)C(=O)[C@H](CCCCNC(=O)[C@H](CC(C)C)NC(=O)C2OC2C(=O)O)NC(=O)CN2CCN(CC(=O)[O-])CCN(CC(=O)[O-])CCN(CC(=O)[O-])CC2)cc1C(C)C.[177Lu+3] (mixture of isomers) — tissue uptake (mouse, HT-29 xenograft, lung; 4 h post injection): 1.54 %ID/g
Cc1nn(-c2nc3c(F)cc(F)cc3s2)c(O)c1C(c1ccc(C(F)(F)F)cc1)c1c(C)nn(-c2nc3c(F)cc(F)cc3s2)c1O — plasma concentration (ICR mouse; oral, 50 mg/kg, 0.25 h): 36800 ng/mL and 21800 ng/mL and 36400 ng/mL
CCCCN1C(=O)c2cccc3c(NCCCN4CCOCC4)ccc(c23)C1=O — emission maximum (DMSO): 535 nm
COc1cc(-c2nc3ccccc3s2)cc(CN2CCN(C)CCN(Cc3cc(-c4nc5ccccc5s4)cc(OC)c3O)CC2)c1O — pKa2 (UV-vis spectrophotometric titration; aqueous NaCl 0.1 M; 20 µM, 25 °C, pH 3 to 11): 7.13
Cc1[nH]nc2c1N=C(c1ccccc1Cl)c1cnc(N3CCOCC3)cc1N2 — Cmax (nude mouse, HCC1806 xenograft, plasma; oral, 5 mg/kg once daily): 110 ng/mL
C/C(N)=N/C(=N\S(=O)(=O)c1ccc(C(F)(F)F)cc1)N1C[C@H](c2ccccc2)C(c2ccc(Cl)cc2)=N1 — Tmax (beagle dog, plasma; oral, 18 mg/kg): 4 h
O=C(Nc1cnccc1-c1ccc([18F])cc1)c1ccnc(NC(=O)C2CC2)c1 — SUV (FVB/NJ mice (both sexes), hippocampus; intravenous, dose not given, 120 min, added: tariquidar 15 mg/kg i.v. pre-dose): 0.25
O=C(NS(=O)(=O)c1cccs1)c1cc2ccccc2n1Cc1ccc(Br)c2ccccc12 — AUC(0-last) (mouse, plasma; oral, 2 mg/kg): 348 ng·h/mL
O=C(Nc1cnccc1-c1ccc([18F])nc1)c1ccnc(NC(=O)C2CC2)c1 — SUV (FVB/NJ mouse, both sexes, brain; intravenous, 40 min, added: tariquidar 15 mg/kg iv): 0.146
Cc1ncsc1-c1ccc(C(C)NC(=O)C2CC(O)CN2C(=O)C(NC(=O)CCCCCCCCCCN2CCCC(Nc3ncc(Cl)c(Nc4ccccc4S(=O)(=O)C(C)C)n3)C2)C(C)(C)C)cc1 (centres unmarked) — log2 fold change (22Rv1; RNA-seq, item: MOB3C mRNA; concentration not given; reference: DMSO): -1.58
COc1cccc(OC)c1-c1cc(C(=O)NC2(C(=O)O)C3CC4CC(C3)CC2C4)nn1-c1ccc(C(=O)N(C)CCCN(C)C(=O)[C@H](CCCCNC(=O)[C@H](CC(C)C)NC(=O)C2OC2C(=O)O)NC(=O)CN2CCN(CC(=O)[O-])CCN(CC(=O)[O-])CCN(CC(=O)[O-])CC2)cc1C(C)C.[177Lu+3] (mixture of isomers) — tumour-to-pancreas ratio (mouse HT-29 xenograft; 168 h, biodistribution; reference: tumour over pancreas): 20.6
CCCCN1C(=O)c2cccc3c(NCCCCCCN4CCOCC4)ccc(c23)C1=O — emission maximum (methanol): 538 nm
COC(=O)C(C)n1nc(Cn2cc3cc(OCC[18F])c(Cl)cc3n2)c2ccccc2c1=O (racemic) — parent compound (rat, plasma; 60 min): 20%
CN(C)C(=O)c1ccnc(N2Cc3cn(Cc4ccc(Cl)cc4)nc3C2)n1 — half-life (metabolic stability; rat, liver microsomes): 6.22 h
O=C(Oc1cccccc1=O)c1ccc(Cl)cc1 — CC50 (HepDES19; cell growth or viability, MTS; 72 h): 99.5 µM
COc1cnc2cccc(N3CCc4c(cc(Cn5ccnc5)cc4-c4cn(C)nc4C(F)(F)F)C3=O)c2c1 — half-life (male CD-1 mouse, plasma; intraperitoneal, 50 mg/kg): 1.3 h
O=c1c(O)ccc(-c2cnc3ccccc3c2)cc1O — CC50 (HepDES19; cell growth or viability, MTS; 72 h): 16.9 µM
C=CC(=O)Nc1cc(Nc2nccc(-c3c[nH]c4ccccc34)n2)c(OC)cc1N(C)CCN(C)C — recovery (storage stability; human dried blood spots; 5 h, on ice, medium QC level): 82.2%
COc1ccnc(C(=O)N[C@H]2COC(=O)[C@H](Cc3ccccc3)[C@@H](OC(=O)C(C)C)[C@H](C)OC2=O)c1O — Freundlich coefficient KF (soil adsorption; tested soils; geometric mean): 74 mL/g
CCCCN1C(=O)c2cccc3c(NCCCCCCCCN4CCOCC4)ccc(c23)C1=O — emission maximum (DMSO): 535 nm
CC(C)(O)c1ncc([S@](N)(=O)=NC(=O)Nc2c3c(cc4c2CCC4)CCC3)s1 — subjects with adverse events (item: general and administration-site disorders; healthy human volunteers; oral, 50 mg twice daily, 14 days, enteric-coated tablet): 43%
O=C1C2CC3CC1CC(C(=O)N1CCN(c4ccc([N+](=O)[O-])c5ncccc45)CC1)(C3)C2 — revertant colony count (Escherichia coli; Ames test; WP2 uvrA pKM101; 0.05 µg/well, without S9 activation): 25 colonies/well
CC(CCC(=O)NCC(=O)O)C1CCC2C3CCC4CC(OC5OC(C(=O)O)C(O)C(O)C5O)CCC4(C)C3CC(O)C12C (centres unmarked) — relative peak deviation (human, plasma; endogenous baseline diurnal; reference: daily mean concentration): 143 ± 31%
COc1ccc(Nc2nc(Nc3ccc(OCCOCCOCC[18F])cc3)ncc2Br)cc1 — tissue uptake (ICR mice, S180 tumour-bearing, heart; intravenous, 370 kBq, 60 min): 1.63 ± 0.09 %ID/g
CC1(C)C(=CC=C2CCCC(C=CC3=[N+](CCC[N+](C)(C)C)c4ccc(S(=O)(=O)O)cc4C3(C)C)=C2SCCOCCOCCC(=O)O)N(CCC[N+](C)(C)C)c2ccc(S(=O)(=O)O)cc21 — emission maximum wavelength (HEPES buffer with FBS; pH 7.4, 50 mM HEPES, 30% FBS): 808 nm
N#Cc1ccnc(N2Cc3cn(Cc4ccc(F)cc4)nc3C2)n1 — half-life (metabolic stability; rat, liver microsomes): 0.0283 h
C=C(NC(=O)c1csc(-c2nc3c(cc2O)-c2nc(cs2)C(=O)NC(C(C)O)C(=O)NC(=C(C)OC)c2nc(cs2)C(=O)NC2c4nc(cs4)C(=O)NC(COC(=O)c4c5c6c(cccc6n4O)COC(=O)C(OC4CC(C)(O)C(N(C)C)C(C)O4)C2OC5)c2nc-3cs2)n1)C(N)=O (centres unmarked) — AUC(0-last) (Sprague-Dawley rat, male, plasma; intravenous infusion, 2 mg/kg single dose): 787 ng·h/mL

Repeated from above:
C=CC(=O)Nc1cc(Nc2nccc(-c3c[nH]c4ccccc34)n2)c(OC)cc1N(C)CCN(C)C — recovery (storage stability; human dried blood spots; 5 h, on ice, medium QC level): 82.2%
[Mn+2].[O-][Cl+3]([O-])([O-])[O-].[O-][Cl+3]([O-])([O-])[O-].c1ccc(CN2Cc3cccc(n3)CN(Cc3ccccn3)Cc3cccc(n3)C2)nc1 — stability constant log β (voltammetry, Nernst equation; Mn(III) complex): 6.31
CS(=O)(=O)c1cc(Cl)cc(-c2cc(Cl)c(Cl)cc2Cl)c1Cl — dose fraction in milk fat (whole cow milk; 100 nM nominal): 86.5%
CN(O)C(=O)CCC(=O)NCCCN(CCCCN(CCCNC(=O)CCC(=O)N(C)O)C(=O)CCC(=O)N(C)O)C(=O)CCC(=O)N(C)O.[89Zr] — intact complex (human plasma; 5 d, 37 °C): 100%
COC(=O)C(C)n1nc(Cn2cc3cc(OCC[18F])c(Cl)cc3n2)c2ccccc2c1=O (racemic) — parent compound (rat, plasma; 60 min): 20%
